Experimental data collected from several papers.
Each line is one published result; not all experiments were run side by side.

For `N=C(N)NCCC[C@H](NC(=O)[C@H](CCCNC(=N)N)NC(=O)[C@H](CS)NC(=O)[C@H](CC(N)=O)NC(=O)[C@@H]1CCCN1C(=O)[C@H](CC(N)=O)NC(=O)[C@H](CCCCN)NC(=O)[C@H](CCCCN)NC(=O)[C@@H](N)CCCNC(=N)N)C(=O)N[C@@H](Cc1c[nH]cn1)C(N)=O`, body weight read “no effect” (BALB/c nude mouse xenograft; ip, 1 mg/kg three times weekly, 5 weeks).
`CC[C@H](C)[C@H](NC(=O)[C@H](CC(C)C)NC(=O)[C@H]1CCCN1C(=O)[C@@H](CO)NC(=O)[C@H](N)CC(C)C)C(=O)N[C@@H](Cc1ccccc1)C(=O)N[C@H](C(=O)N[C@H](C(=O)N[C@H](C(=O)N1CCC[C@H]1C(=O)N[C@@H](CC(=O)O)C(=O)N[C@@H](C(=O)O)[C@H](C)O)[C@@H](C)O)[C@@H](C)O)C(C)C` — result for body weight: “no effect” (C57BL/6 mouse, tumour-bearing; intraperitoneal, 2 or 6 mg/kg daily, 14 days; relative to: negative control).
Under “body weight change”, `COCC1CN(C2CCN(c3cc(OC)c(Nc4ncc(Br)c(Nc5ccc6c(c5P(C)(C)=O)OCCO6)n4)cc3C)CC2)C1` is recorded as “not toxic” (PC-9 EGFR Del19/T790M/C797S, mouse xenograft; oral, dose not given, once daily).
For `COc1ccc2sc3c(c2c1)SCCNC3=O`, body weight read “no effect” (mouse, CFPAC-1 xenograft; intravenous, 37.5 and 25 mg/kg/day, daily for 4 days).
`CCCCCCCCCn1cc(C(N)(CO)CO)nn1` — result for body weight: “no effect” (APP/PS1 mouse; oral, up to 10 mg/kg).
`C=CC(=O)N1C[C@H](C)N(c2nc(OC[C@@]34CCCN3C[C@H](F)C4)nc3c(F)c(-c4ccc(F)c5sc(N)c(C#N)c45)c(C(F)(F)F)cc23)C[C@H]1C`: body weight “not toxic” (mouse, MIA PaCa-2 xenograft; oral, 0.1 to 10 mg/kg daily, 28 days, tolerability).
`N[C@@H](CCC(=O)N[C@@H](CS[Se]Cc1ccc(-c2cc(C(F)(F)F)nn2-c2ccc(S(N)(=O)=O)cc2)cc1)C(=O)NCC(=O)O)C(=O)O` — result for body weight: “no effect” (athymic nude mouse xenograft; i.p., 0.127 µmol alternate days, 4 weeks).
Under “body weight loss”, `CCCCCCCCC=CCCCCCCCC(=O)OCC1OC(n2ccc(N)nc2=O)C(F)(F)C1O` (centres unmarked) is recorded as 4% (female nude mouse, colon xenograft, patient-derived colon tumour; oral, 100 mg/kg, dosed days 1 and 8).

A few entries again:
For `N=C(N)NCCC[C@H](NC(=O)[C@H](CCCNC(=N)N)NC(=O)[C@H](CS)NC(=O)[C@H](CC(N)=O)NC(=O)[C@@H]1CCCN1C(=O)[C@H](CC(N)=O)NC(=O)[C@H](CCCCN)NC(=O)[C@H](CCCCN)NC(=O)[C@@H](N)CCCNC(=N)N)C(=O)N[C@@H](Cc1c[nH]cn1)C(N)=O`, body weight read “no effect” (BALB/c nude mouse xenograft; ip, 1 mg/kg three times weekly, 5 weeks).
